Experimental data gathered from unrelated publications.
Each numbered part is a random draw from the data of one study; scales do not carry over between parts. Positions count from the first letter of the parent shown.

Series 1 — method: universal PBM; molecule type: double-stranded DNA, one strand shown; sample: in vitro; concentration: not given; direction: higher = stronger binding
Target: Sal-like protein 4, full length isoform B (SALL4, Homo sapiens, UniProt Q9UJQ4-2, residues 1-616)
Setting: 8-mer, flanks averaged, mean of replicates
Oligonucleotide | E-score
AGAACCCG | -0.237
GAAGGCTA | -0.00411
CCCGCAGG | -0.42
CGTAGATC | -0.00542
AGTGCCAT | 0.0314
AATGATCA | 0.19
TTAATCAA | 0.37
AAACCGCG | -0.167
TACCTCGA | 0.0617
AAGGTACA | 0.101
CGTCGAAA | -0.0403
ACGGTAGA | -0.105
AGTCGTTG | -0.0997
ATAAGCGG | 0.115
ATTTCCTG | 0.172
ATAACTTC | 0.255

Series 2 — method: DHFR PCA, deep sequencing; sample: yeast; together with: (+)-ABA 4.8 µM; baseline: wild-type fitted maximum; direction: higher = stronger binding
Target: ABI1, truncated, D143A, DHFR fusion (Arabidopsis thaliana)
Setting: methotrexate growth selection, single substitutions
Starting sequence: PYL1, truncated, DHFR fusion (Arabidopsis thaliana); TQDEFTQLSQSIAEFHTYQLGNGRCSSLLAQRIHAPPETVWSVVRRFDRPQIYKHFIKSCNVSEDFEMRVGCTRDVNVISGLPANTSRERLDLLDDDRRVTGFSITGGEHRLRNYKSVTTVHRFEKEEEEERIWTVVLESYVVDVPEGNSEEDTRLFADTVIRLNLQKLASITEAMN; partner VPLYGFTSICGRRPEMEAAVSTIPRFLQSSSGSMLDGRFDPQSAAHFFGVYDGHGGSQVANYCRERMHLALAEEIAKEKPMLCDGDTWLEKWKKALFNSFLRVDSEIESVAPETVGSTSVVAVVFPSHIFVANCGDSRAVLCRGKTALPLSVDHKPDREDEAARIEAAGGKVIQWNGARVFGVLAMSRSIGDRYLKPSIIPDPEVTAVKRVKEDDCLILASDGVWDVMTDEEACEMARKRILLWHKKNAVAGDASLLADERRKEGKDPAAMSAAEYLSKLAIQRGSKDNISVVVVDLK
Change | relative binding score
T119W | -8.28%
E14F | 3.82%
C72N | 54.8%
E151L | 61.2%
D153S | 1.76%
V78R | 14.4%
D75Q | 82.3%
K54G | -4.79%
I105H | -14.5%
N149L | 5.06%
G23R | 58.5%
R99F | 87.6%

Series 3 — method: protein-binding microarray; molecule type: double-stranded DNA, one strand shown; sample: in vitro; concentration: 250 nM; setting: 60-bp whole probe; together with: salmon DNA 0.4 mg/ml; baseline: random background probes; direction: higher = stronger binding; constant ends, left off below: GCCTAGCAC … GTCTTGATTCGCTTGACGCTGCTG
Target: Interferon regulatory factor 7, full length, phosphomimetic (IRF7, Homo sapiens, UniProt Q92985, residues 1-503, S101K/S471D/S472D/S475D/S476D/S477D/S483D/S484D/S487D)
Residues (chain): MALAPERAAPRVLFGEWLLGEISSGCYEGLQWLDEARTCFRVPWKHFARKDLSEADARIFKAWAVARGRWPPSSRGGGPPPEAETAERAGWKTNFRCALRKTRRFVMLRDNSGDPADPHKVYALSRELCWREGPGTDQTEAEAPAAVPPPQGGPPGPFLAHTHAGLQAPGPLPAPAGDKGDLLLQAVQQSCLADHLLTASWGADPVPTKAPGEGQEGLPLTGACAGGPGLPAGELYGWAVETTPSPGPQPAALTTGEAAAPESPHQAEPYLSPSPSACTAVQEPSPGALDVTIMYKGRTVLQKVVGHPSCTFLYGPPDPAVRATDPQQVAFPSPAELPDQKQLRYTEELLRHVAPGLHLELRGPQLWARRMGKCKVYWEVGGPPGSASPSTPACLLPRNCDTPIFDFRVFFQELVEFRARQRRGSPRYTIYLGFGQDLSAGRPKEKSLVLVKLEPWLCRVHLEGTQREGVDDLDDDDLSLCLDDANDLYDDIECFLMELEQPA
Oligonucleotide | log fluorescence [z-score]
TCAAGTATTTTTTTCCAACTGTGCTAG | 0.568
TACGGTTTCGGTATCGGGACGTGCTAG | 10.5
TCACTCTTCCTTTACTTACTGTGCTAG | 0.949
TCATCTTTTCTGTTGTCACTGTGCTAG | 1.28
TAGGCTCCAGGTTCTCTGAAGGTGCTA | -0.25
TCAGTTTTCATTTTCTGACTGTGCTAG | 4.18
CCATACTTCCCACTGGTCTTGTGCTAG | 1.11
GGCGGTTTCGACACTGGGGACGTGCTA | 3.21
AGCACTCCAGAGGCAGAGGCGTGCTAG | -0.999
GACGATTTCGGGTTTCGAGAGGTGCTA | 3.19
TTAGATATCTGACTGGATTAGTGCTAG | 0.00751
TCACCTTTCTCCATGGGACTGTGCTAG | 1.31
GACGGTATCCTAATCCTGACGTGCTAG | 0.23
TTAGGTATCGGTTTCTGTTAGTGCTAG | 7.89
TTACAACTGGGGTTTCGATTAGTGCTA | 5.7
TTAGATCTCAGTATCGATGAGTGCTAG | 0.231
CACGGACTGGGGTATCGGGACGTGCTA | -0.537

Series 4 — method: protein-binding microarray; molecule type: double-stranded DNA, one strand shown; sample: in vitro; concentration: not given; direction: higher = stronger binding
Target: Transcription factor SOX-2, HMG box (SOX2, Homo sapiens, UniProt P48431, residues 19-118)
UniProt P48431, sequence (19-118, looked up): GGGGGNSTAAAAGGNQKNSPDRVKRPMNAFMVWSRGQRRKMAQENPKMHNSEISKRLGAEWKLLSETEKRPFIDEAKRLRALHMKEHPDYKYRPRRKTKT
Setting: k-mer, scored over probes, only values ≥0.25
Oligonucleotide | E-score
AATAACA | 0.356
AAAGCTG | 0.322
AATAGAT | 0.371
CATACAA | 0.369
GAATAAC | 0.27
CCATTCA | 0.435
ATCAAAT | 0.283
AAATTGA | 0.354
AGTATTA | 0.251
AATTAAA | 0.358
AATAGTC | 0.287
ATAAAAG | 0.265
ATTGACC | 0.304
ACAATCA | 0.381
CATTGTC | 0.466
AAATAAT | 0.406
ATTCATA | 0.442

Series 5 — method: RNA Bind-n-Seq; molecule type: RNA; sample: in vitro; concentration: 365 nM; baseline: no-protein control; direction: higher = stronger binding
Target: RNA binding protein fox-1 homolog 2, RRM domain, GST-SBP tag (RBFOX2, Homo sapiens, UniProt O43251-10, residues 100-194)
Setting: natural RNA segment, single round, ends assumed
Constant ends, left off below: GGGAGUUCUACAGUCCGACGAUC … UGGAAUUCUCGGGUGCCAA
Target sequence (chain): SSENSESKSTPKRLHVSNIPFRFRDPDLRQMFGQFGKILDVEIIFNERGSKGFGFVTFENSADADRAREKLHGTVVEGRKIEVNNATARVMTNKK
Oligonucleotide | RBNS enrichment (R)
AGAUCUUACUUCUGAAUUUGAAUCGGUGGAAGACCUCAGUUCACAUGCUAAGUCAAAACGGCCCUUAGUCACGACCUUGUUGUGGCCCCUCCCUUGUCAUCAGUAGUAAC | 0.314
GGACAAAGGUGAUGAAACCAAGAGAGCUCCUGCCUUCUUGCCUGCCUACGUGAACCACCUGGGUCUCCCUUAGCAGGUACCCAGCCCUGAGGUGACUGACCACCUAGGGC | 0.846
AUUUGUACAAAUGCAGCAUCUUCAUUCUUUCUGAGAAGACAAGAUGGUUUUCUUUACAUGAACAAAUGAACAAAAGAGAUCCUAGAUCCAUAACGUAGCUAAGGCAUCUA | 0.255
AAGCUGUUAUAAAUAUAUAUUAUAUAAAUAUAUUAAAAAGGAAAAUGUUUCAGAUGUUUAUUUGUAUAAUUACUUGAUUCACACAGUGAGAAAAAAUGAAUGUAUUCCUG | 3.71
GUCAUGACACUUAGUAAGUUUGCUUCCUUUCUCUGUCAUUUGAUCCUAAGGUAACAUAUGUCUCACAUGUAUUCAGACAUACAGGAUGCUAAUCCACCUUGCAUCCUGCU | 0.304
UUAUAAAAUGAUUACUUUGUAUAUCUCAUUAUUCCUAUUUUGGAAUAAAAACUGACCUUCUUUAAUCAUAUACUUGUCUUUUGUAAAUAGCAGCUUUUGUGUCAUUCUCC | 0.512
AAACUGUGACACUGUGUAAUGAGCACUGUUCCCAGCGGCAAUUACAGAGAAAACGAGUGUAAAUUAUUUCAACUGGAAAAAAGUCCCUUUCUUGGCUGUUUUAGAACAGG | 0.359
AUAUAUACAUAUAUAUGCACCUAUAUAACGUGUAUAUAUAUAAAUGCAGCCAUUGCUAUUGCAAUUCAUUUAAUAAAGCUUUAGUUUAAAAACCAAGCAUUGUGUACAGG | 0.353
AAAAUAAAAUCUCUAGUCCAAACACACUGACAGUAUUAUGUUUGCCUGAAUGUGAAACAUUCCUCCUUUUUUCUUCCAUAAAUAAUUUGUUUGCUUCCCAAAGAUGUAUG | 1.45
ACGGUCCAGGGCAAACUGAAAUGUACGCCUGAAUUUUGUAAACAGAAGUAUUAAAUGUCUCUUUCUAAGCCCCUUGCCUCGUCUUGGUGCAGGGGUGGGCCUGCCACCCA | 0.657
AAAUAUAUGCAGCACCACUAGCUUGUGCUGGUUUUUAGAUUUUUUUGUUUUCAAAAAAACAUUUGUCAGUAAUUUAACAUCACUACAAAAAGAAGAGUUUGUGACUAUUC | 0.411
CCUCUUUUCUAUAUUUAUUUCAUAGAAAGUCUCCUGCGGGAGCGGAAAUGCAGUCCGGCCUAGGGCUCCCAGCCCUUGACUGUCCUCCUGUGAGGGCCUGAAGCUGGGCC | 0.3

Series 6 — target: CCNB1, cyclin fold, Cln2 fusion (human); method: yeast growth competition, sequencing; sample: yeast; setting: weak parent motif; baseline: not given; direction: higher = stronger binding
Starting sequence: ORC1 docking peptide (human); PRARKRLELGNLG
Change | normalised enrichment score
PRARYRLELGNLG [K5Y] | 0.206
PRARKRLELGQLG [N11Q] | 0.0273
PRARKALELGNLG [R6A] | -0.087
QRARKRLELGNLG [P1Q] | 0.711
PRARKRLELGKLG [N11K] | -0.511
PRDRKRLELGNLG [A3D] | 0.642
PRARKRLWLGNLG [E8W] | 0.256
PGARKRLELGNLG [R2G] | 0.0419
PRARKRLELGRLG [N11R] | 0.685
PRARCRLELGNLG [K5C] | 0.375
PRARKRLMLGNLG [E8M] | 0.597
PRARKRLELGNLT [G13T] | -0.0782
PRARKRLELGTLG [N11T] | 1.02
PRARKRLELGPLG [N11P] | 0.667
YRARKRLELGNLG [P1Y] | 0.666
PRERKRLELGNLG [A3E] | 0.759
PRARQRLELGNLG [K5Q] | 0.305

Repeated from above (series 1):
Oligonucleotide | E-score
AAGGTACA | 0.101
GAAGGCTA | -0.00411
CGTCGAAA | -0.0403
CCCGCAGG | -0.42
AGTCGTTG | -0.0997
ACGGTAGA | -0.105
ATTTCCTG | 0.172
AAACCGCG | -0.167
AATGATCA | 0.19
TTAATCAA | 0.37
TACCTCGA | 0.0617
CGTAGATC | -0.00542
